Published values gathered from unrelated publications.
Numbered parts are unrelated; each lists some results of a single study. Substitutions count along the parent as printed.

Sample 1
Target: TAR DNA-binding protein 43, full length, His tag (TARDBP, Homo sapiens, UniProt Q13148, residues 1-414)
Method: RNA Bind-n-Seq
Molecule type: RNA
Medium: in vitro
Concentration: 20 nM
Notes: 6-mer, flanks averaged, single round
Added: 150 mM LiCl
Reference: input library
Reading: higher = stronger binding
Oligonucleotide	6-mer enrichment (R)
CAGAAU	0.852
AUCACU	0.832
UUCUUA	0.994
UCACUG	0.859
AAGAUG	0.916
GCUGAA	0.918
GCGAAC	0.864
UCGAGA	0.882

Sample 2
Target: vanadate, free oxyanion
Method: microfluidic competitive inhibition
Medium: in vitro, cell-free expressed
Concentration: not given
Notes: derived from inhibition constants, unchanged parent 676 nM
Reading: lower = stronger binding
Parent: PafA, mature enzyme, eGFP fusion (Elizabethkingia meningoseptica, UniProt Q9KJX5); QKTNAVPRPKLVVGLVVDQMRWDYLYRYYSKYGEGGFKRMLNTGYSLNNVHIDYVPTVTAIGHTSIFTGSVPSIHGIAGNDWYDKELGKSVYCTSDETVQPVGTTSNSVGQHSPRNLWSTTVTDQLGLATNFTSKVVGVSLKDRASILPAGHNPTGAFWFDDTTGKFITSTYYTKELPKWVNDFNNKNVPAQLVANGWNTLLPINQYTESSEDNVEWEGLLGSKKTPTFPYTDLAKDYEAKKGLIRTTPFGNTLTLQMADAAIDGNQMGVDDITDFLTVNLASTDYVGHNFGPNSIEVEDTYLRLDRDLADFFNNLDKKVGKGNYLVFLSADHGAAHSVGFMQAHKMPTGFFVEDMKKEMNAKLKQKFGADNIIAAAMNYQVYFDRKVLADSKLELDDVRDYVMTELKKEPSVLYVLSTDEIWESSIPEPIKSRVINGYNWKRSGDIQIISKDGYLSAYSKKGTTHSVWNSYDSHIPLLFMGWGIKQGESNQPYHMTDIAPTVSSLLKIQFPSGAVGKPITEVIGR
Substitution	oxyanion analog dissociation constant
P203V	0.758 µM
S65V	2.57 µM
Q100V	0.658 µM
A458G	0.649 µM
N48G	0.749 µM
L506G	1.04 µM

Sample 3
Target: CCND2, cyclin fold, Cln2 fusion (human)
Method: yeast growth competition, sequencing
Medium: yeast
Notes: strong parent motif
Reference: not given
Reading: higher = stronger binding
Parent: viral docking peptide; YKVKRRLVFGADD
Substitution	normalised enrichment score
F9T	0.466
D12N	1.13
A11T	1.67
F9A	-0.223
K4M	-0.14
F9L	0.449
K4S	1.86
V3L	0.305
L7W	-0.306
V8A	0.365
F9C	0.521
G10Y	1.06
R5D	0.0198
V8Q	1
A11C	1.19
G10S	1.13
G10P	1.29
F9V	-0.021
R6F	-0.0698
V8Y	0.678
G10H	0.871
K2C	1.66
K2L	0.794
D12M	1.08
K2N	1.73

Sample 4
Target: Prothrombin, mature alpha-thrombin (F2, Homo sapiens, UniProt P00734)
Method: aptamer microarray, sandwich
Molecule type: DNA with 2'F-ANA
Medium: in vitro
Concentration: 200 nM
Notes: whole 15-mer aptamer, many near background
Added: Cy3 exosite-II aptamer, 400 nM
Reading: higher = stronger binding
Oligonucleotide: GGTTGGTGTGGTTGG
Modification	mean fluorescence intensity [a.u.]
2'F-ANA at 8 9 10 12 15	228
2'F-ANA at 2 3 5 6 7 8 9 11 12 13 14	52.6
2'F-ANA at 1 2 3 5 7 8 9 13 14	47.4
2'F-ANA at 1 2 4 6 10 12 13 15	53
2'F-ANA at 3 4 9 10 11 12 13 14	200
2'F-ANA at 2 6 8 9 10 11 13 14 15	65.7
2'F-ANA at 2 6 7 10 12 13 15	128
2'F-ANA at 1 2 3 5 9 12 15	129

Sample 5
Target: MAFK, bZIP domain (human)
Method: DHFR protein complementation
Medium: yeast
Notes: single substitutions, most at no-binding floor
Reference: wild-type JUN-FOS pair
Reading: higher = stronger binding
Parent: JUN, bZIP domain (human); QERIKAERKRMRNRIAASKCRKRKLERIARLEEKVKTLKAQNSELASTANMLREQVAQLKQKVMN; partner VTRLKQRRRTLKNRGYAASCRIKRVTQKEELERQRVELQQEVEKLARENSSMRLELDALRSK
Substitution	binding fitness [natural log]
R30A	-1.46
S47R	-1.36
A46E	-1.46
L38E	-1.5
Q55W	-1.54
A46M	-1.42
Q55T	-1.5
L38W	-1.52

Single results of other studies
SMILES	target	assay	setting	measurement	result
CNCc1ccccc1-c1csc([C@H](C)Nc2nc(C)nc3cc(OC)c(OC)cc23)c1	Cyclin-dependent kinase 2 homolog (CRK2, Plasmodium falciparum, UniProt P61075)	cell-free assay, competition with immobilised ligand	1 µM	remaining binding	71%

Repeated from above (sample 3):
Substitution	normalised enrichment score
A11C	1.19
G10S	1.13
G10P	1.29
F9V	-0.021
R6F	-0.0698
V8Y	0.678
